Published values pooled from the literature.
± gives the spread as reported. Square brackets hold non-standard residues; d marks the D form. Where no end group is shown, it is not given here. Ends that are not written are not given here. [ ]: non-standard residue; d: D form.
PRI1/PRI2 PRI1 1-409, PRI2 49-513 del382-384: PRI1/PRI2 PRI1 1-409, PRI2 49-513 del382-384 (Saccharomyces cerevisiae)
T1: NR1I2/RXRA (Homo sapiens); chain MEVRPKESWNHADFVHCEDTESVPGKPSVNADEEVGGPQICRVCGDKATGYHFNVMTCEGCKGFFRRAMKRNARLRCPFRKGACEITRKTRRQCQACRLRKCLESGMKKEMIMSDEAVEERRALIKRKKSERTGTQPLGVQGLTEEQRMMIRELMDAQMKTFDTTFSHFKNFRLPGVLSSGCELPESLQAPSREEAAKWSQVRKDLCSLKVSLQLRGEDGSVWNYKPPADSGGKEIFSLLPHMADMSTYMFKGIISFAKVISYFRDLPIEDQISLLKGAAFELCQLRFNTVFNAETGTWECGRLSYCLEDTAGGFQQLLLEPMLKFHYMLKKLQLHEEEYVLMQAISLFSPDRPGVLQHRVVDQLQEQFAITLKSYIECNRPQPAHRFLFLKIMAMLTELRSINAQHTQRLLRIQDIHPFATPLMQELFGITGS; chain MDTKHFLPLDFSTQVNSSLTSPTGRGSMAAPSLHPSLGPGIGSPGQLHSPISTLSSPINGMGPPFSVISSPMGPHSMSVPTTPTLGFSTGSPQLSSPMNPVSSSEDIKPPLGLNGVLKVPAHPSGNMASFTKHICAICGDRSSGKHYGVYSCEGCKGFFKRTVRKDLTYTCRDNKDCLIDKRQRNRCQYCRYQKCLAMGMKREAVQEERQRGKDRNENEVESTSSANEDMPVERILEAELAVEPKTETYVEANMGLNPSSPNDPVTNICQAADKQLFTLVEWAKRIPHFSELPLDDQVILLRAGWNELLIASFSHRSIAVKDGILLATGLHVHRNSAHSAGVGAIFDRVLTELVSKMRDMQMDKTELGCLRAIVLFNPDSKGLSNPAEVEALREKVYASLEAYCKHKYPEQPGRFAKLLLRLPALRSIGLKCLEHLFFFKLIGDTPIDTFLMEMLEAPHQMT
B1: PAT1 422-796 S456E/S457E (Saccharomyces cerevisiae, UniProt P25644); chain KDVTDSLTNVDLASSGSSSTGSSAAAVASKQRRREEYAFNNGNGATNLNKSGGKKFILELIETVYEEILDLEANLRNGQQTDSTAMWEALHIDDSSYDVNPFISMLSFDKGIKIMPRIFNFLDKQQKLKILQKIFNELSHLQIIILSSYKTTPKPTLTQLKKVDLFQMIILKIIVSFLSNNSNFIEIMGLLLQLIRNNNVSFLTTSKIGLNLITILISRAALIKQDSSRSNILSSPEISTWNEIYDKLFTSLESKIQLIFPPREYNDHIMRLQNDKFMDEAYIWQFLASLALSGKLNHQRIIIDEVRDEIFATINEAETLQKKEKELSVLPQRSQELDTELKSIIYNKEKLYQDLNLFLNVMGLVYRDGEISELK
B2: Nup98 732-880 (Mus musculus, UniProt Q6PFD9); sequence looked up; chain AGIVLTKVGYYTIPSMDDLAKITNEKGECIVSDFTIGRKGYGSIYFEGDVNLTNLNLDDIVHIRRKEVIVYVDDNQKPPVGEGLNRKAEVTLDGVWPTDKTSRCLIKSPDRLADINYEGRLEAVSRKQGAQFKEYRPETGSWVFKVSHF
B3: RNF7 5-113 (Homo sapiens, UniProt Q9UBF6); chain EDGEETCALASHSGSSGSKSGGDKMFSLKKWNAVAMWSWDVECDTCAICRVQVMDACLRCQAENKQEDCVVVWGECNHSFHNCCMSLWVKQNNRCPLCQQDWVVQRIGK
B4: sodA Q21C (Escherichia coli, UniProt P00448); Alexa Fluor 647 label; sequence looked up; chain MSYTLPSLPYAYDALEPHFDKCTMEIHHTKHHQTYVNNANAALESLPEFANLPVEELITKLDQLPADKKTVLRNNAGGHANHSLFWKGLKKGTTLQGDLKAAIERDFGSVDNFKAEFEKAAASRFGSGWAWLVLKGDKLAVVSTANQDSPLMGEAISGASGFPIMGLDVWEHAYYLKFQNRRPDYIKEFWNVVNWDEAAARFAAKK
B5: RRP6 128-634 (Saccharomyces cerevisiae, UniProt Q12149); sequence looked up; chain RVEKPQLKFKSPIDNSESHPFIPLLKEKPNALKPLSESLRLVDDDENNPSHYPHPYEYEIDHQEYSPEILQIREEIPSKSWDDSVPIWVDTSTELESMLEDLKNTKEIAVDLEHHDYRSYYGIVCLMQISTRERDYLVDTLKLRENLHILNEVFTNPSIVKVFHGAFMDIIWLQRDLGLYVVGLFDTYHASKAIGLPRHSLAYLLENFANFKTSKKYQLADWRIRPLSKPMTAYARADTHFLLNIYDQLRNKLIESNKLAGVLYESRNVAKRRFEYSKYRPLTPSSEVYSPIEKESPWKILMYQYNIPPEREVLVRELYQWRDLIARRDDESPRFVMPNQLLAALVAYTPTDVIGVVSLTNGVTEHVRQNAKLLANLIRDALRNIKNTNEEATPIPSSETKADGILLETISVPQIRDVMERFSVLCNSNISKSRAKPVTNSSILLGKILPREEHDIAYSKDGLPNKVKTEDIRIRAQNFKSALANLEDIIFEIEKPLVVPVKLEEIK
B6: CRYAB (Homo sapiens, UniProt P02511); chain MDIAIHHPWIRRPFFPFHSPSRLFDQFFGEHLLESDLFPTSTSLSPFYLRPPSFLRAPSWFDTGLSEMRLEKDRFSVNLDVKHFSPEELKVKVLGDVIEVHGKHEERQDEHGFISREFHRKYRIPADVDPLTITSSLSSDGVLTVNGPRKQVSGPERTIPITREEKPAVTAAPKK
B7: BMP2 mature (Homo sapiens, UniProt P12643); sequence looked up; chain QAKHKQRKRLKSSCKRHPLYVDFSDVGWNDWIVAPPGYHAFYCHGECPFPLADHLNSTNHAIVQTLVNSVNSKIPKACCVPTELSAISMLYLDENEKVVLKNYQDMVVEGCGCR
B8: ATG10 1-167 C26S/C137S (Saccharomyces cerevisiae, UniProt Q07879); Cys133 BMOE-reacted; chain MIPYQEWHSQLQSLYDSQIFHNWALSQDVHLNDEKDGLLLRLIPTRQLQKNTERIENKLLNHIELYLTYSKVYNEPLLLLRIWEEKSIDGIPMTKLMLPTDIESLLDVQGKFQLGLDTIINLEGSVWYSFHPCDTSSIVGDQAEFMSTYLRRWVSIFIFSWLGYEDS
B9: SEC72 (Saccharomyces cerevisiae, UniProt P39742); lysines PEGylated; sequence looked up; chain MVTLEYNANSKLITASDAVVALSTETNIDQINVLTTSLIGETNPNFTPQPNEALSKMIKGLFESGMKNLQQKKLNEALKNVSLAIEMAQRKRAPWEAFAIQLPELHFMLRSKIDLCLILGKHLEALQDLDFLLGTGLIQPDVFVRKADCLLKLRQWEEARATCERGLALAPEDMKLRALLIETARNLAEYNGE
B10: SERK3 ectodomain 26-225 F144A (Arabidopsis thaliana, UniProt Q94F62); sequence looked up; chain NAEGDALSALKNSLADPNKVLQSWDATLVTPCTWFHVTCNSDNSVTRVDLGNANLSGQLVMQLGQLPNLQYLELYSNNITGTIPEQLGNLTELVSLDLYLNNLSGPIPSTLGRLKKLRALRLNNNSLSGEIPRSLTAVLTLQVLDLSNNPLTGDIPVNGSFSLFTPISFANTKLTPLPASPPPPISPTPPSPAGSNRITG
Chain of UniProt Q61315 (whole entry, looked up): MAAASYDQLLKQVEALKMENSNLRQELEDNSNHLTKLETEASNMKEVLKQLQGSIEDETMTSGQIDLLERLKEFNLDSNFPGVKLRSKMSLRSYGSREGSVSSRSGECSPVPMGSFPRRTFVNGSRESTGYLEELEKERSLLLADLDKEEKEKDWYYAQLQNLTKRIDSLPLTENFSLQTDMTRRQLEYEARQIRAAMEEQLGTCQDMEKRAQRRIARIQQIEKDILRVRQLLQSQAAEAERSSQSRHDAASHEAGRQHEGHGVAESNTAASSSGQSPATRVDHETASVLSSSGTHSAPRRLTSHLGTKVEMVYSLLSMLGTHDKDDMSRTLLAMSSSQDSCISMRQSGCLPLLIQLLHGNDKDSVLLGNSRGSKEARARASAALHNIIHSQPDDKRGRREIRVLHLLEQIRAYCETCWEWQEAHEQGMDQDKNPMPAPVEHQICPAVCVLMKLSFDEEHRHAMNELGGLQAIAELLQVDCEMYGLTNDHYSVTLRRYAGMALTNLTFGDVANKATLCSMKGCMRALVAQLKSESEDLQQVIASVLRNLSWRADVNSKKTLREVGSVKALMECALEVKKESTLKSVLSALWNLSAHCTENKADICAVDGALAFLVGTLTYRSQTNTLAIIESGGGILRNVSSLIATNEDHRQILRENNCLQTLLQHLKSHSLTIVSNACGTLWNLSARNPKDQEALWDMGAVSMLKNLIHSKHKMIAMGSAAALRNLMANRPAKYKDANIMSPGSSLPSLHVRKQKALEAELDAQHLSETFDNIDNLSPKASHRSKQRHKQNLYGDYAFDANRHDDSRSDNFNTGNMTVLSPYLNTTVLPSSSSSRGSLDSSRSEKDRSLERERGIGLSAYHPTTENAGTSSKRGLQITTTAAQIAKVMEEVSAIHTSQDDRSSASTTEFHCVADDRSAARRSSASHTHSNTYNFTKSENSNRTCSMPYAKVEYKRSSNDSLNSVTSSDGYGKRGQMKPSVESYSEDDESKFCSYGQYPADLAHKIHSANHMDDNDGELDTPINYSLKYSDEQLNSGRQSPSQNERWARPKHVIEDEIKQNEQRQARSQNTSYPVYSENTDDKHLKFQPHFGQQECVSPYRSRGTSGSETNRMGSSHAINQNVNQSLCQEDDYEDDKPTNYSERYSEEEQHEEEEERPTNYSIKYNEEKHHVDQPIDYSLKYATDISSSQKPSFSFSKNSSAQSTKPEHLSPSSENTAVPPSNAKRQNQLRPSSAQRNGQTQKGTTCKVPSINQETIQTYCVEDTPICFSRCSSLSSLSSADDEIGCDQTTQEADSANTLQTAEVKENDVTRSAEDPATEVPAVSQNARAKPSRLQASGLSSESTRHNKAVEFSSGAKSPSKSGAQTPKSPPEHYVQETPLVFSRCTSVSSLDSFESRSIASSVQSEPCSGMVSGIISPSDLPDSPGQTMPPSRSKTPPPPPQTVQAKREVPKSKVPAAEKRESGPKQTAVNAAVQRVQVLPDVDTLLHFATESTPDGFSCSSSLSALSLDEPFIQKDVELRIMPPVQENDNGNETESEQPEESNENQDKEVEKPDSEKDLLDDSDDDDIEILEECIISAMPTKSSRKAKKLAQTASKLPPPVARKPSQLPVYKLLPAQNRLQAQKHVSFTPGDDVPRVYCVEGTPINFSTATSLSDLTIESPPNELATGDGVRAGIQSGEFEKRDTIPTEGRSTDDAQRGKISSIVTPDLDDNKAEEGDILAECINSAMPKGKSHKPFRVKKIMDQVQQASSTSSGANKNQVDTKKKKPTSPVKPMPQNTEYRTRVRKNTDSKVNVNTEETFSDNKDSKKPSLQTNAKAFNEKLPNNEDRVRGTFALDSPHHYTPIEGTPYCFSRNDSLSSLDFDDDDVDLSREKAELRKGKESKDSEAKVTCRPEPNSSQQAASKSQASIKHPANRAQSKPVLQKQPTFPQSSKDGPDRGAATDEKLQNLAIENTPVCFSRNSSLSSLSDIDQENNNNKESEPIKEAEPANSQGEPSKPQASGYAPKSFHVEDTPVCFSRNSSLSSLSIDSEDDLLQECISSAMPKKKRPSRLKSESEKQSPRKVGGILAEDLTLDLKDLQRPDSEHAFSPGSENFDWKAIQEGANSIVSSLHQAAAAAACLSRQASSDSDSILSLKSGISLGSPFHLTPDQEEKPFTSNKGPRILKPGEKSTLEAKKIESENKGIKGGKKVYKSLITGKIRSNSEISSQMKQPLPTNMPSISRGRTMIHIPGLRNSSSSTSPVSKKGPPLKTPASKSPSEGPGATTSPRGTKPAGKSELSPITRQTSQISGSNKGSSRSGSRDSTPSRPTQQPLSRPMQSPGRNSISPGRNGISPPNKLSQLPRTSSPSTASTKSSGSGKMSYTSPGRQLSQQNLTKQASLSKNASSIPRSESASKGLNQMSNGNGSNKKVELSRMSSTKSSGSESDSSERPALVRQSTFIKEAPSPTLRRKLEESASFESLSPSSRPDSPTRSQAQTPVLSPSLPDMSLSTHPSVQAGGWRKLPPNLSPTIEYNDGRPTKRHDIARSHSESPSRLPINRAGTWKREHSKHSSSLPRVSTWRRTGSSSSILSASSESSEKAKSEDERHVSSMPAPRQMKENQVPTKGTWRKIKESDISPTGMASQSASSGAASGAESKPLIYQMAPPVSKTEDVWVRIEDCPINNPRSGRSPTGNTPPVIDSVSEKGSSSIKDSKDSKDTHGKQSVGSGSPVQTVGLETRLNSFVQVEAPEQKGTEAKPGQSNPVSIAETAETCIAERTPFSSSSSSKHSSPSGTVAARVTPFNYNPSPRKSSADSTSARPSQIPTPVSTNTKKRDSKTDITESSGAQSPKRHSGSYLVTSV
Chain of UniProt P53890 (whole entry, looked up): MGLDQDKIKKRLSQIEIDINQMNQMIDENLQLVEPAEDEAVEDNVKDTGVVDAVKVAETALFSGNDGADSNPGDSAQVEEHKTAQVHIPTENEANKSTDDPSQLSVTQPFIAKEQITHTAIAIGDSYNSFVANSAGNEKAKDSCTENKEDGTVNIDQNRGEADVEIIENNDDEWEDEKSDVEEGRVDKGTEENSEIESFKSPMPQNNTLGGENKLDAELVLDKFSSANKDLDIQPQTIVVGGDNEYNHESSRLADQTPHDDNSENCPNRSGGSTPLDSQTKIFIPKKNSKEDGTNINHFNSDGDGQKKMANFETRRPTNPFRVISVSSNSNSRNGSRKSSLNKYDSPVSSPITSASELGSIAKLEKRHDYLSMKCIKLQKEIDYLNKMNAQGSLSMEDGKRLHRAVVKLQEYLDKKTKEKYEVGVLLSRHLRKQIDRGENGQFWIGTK
Chain of UniProt P33175 (whole entry, looked up): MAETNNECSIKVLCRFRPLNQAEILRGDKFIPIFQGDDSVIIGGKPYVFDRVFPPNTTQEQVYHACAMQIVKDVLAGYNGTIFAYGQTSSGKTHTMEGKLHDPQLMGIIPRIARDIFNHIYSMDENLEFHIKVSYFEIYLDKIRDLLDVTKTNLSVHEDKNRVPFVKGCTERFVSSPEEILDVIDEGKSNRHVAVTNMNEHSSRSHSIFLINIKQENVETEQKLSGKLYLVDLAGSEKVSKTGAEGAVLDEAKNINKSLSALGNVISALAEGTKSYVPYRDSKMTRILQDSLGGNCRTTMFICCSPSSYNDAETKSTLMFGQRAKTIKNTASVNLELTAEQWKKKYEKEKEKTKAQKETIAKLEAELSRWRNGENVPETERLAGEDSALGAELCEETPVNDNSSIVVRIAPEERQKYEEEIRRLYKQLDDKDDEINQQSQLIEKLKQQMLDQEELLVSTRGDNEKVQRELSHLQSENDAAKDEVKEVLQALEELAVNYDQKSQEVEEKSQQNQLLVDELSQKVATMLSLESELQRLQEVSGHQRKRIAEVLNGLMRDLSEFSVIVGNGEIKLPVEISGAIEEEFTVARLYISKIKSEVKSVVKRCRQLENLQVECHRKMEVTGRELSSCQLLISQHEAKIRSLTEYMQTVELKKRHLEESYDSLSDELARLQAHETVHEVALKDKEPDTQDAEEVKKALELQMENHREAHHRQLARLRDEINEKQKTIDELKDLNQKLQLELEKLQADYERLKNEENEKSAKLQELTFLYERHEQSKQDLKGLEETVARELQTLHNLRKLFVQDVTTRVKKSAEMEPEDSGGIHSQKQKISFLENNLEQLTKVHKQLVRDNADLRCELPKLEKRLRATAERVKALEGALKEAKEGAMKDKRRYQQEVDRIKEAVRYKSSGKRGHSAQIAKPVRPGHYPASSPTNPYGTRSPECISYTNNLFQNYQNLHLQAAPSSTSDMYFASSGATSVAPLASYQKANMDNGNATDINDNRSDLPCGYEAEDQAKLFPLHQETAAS
Chain of UniProt O55236 (whole entry, unmodified, looked up): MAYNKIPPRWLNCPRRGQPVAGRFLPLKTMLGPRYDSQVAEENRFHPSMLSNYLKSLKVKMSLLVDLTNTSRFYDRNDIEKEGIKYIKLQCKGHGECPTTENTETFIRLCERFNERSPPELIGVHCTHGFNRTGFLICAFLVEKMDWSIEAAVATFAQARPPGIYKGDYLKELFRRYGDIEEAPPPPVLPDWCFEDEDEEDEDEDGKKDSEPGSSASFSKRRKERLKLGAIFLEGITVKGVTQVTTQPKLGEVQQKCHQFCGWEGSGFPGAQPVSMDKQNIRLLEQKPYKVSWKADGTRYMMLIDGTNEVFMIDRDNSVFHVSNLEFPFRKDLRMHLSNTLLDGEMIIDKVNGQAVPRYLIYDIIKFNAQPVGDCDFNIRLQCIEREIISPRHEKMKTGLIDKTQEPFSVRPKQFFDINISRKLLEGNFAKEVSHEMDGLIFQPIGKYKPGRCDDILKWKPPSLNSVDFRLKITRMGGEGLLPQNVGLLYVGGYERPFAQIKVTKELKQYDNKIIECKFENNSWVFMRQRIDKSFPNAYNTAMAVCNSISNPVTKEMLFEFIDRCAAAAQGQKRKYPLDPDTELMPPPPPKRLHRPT
Chain of UniProt P33754 (whole entry, looked up): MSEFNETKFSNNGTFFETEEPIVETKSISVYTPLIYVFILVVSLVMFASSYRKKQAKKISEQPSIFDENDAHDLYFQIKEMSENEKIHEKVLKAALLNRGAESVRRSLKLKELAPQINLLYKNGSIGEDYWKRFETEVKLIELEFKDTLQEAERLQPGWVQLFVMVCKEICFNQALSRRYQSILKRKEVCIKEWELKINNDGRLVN

Substance | tested on | test | test system | setting | scale | measurement | result
GRRYVDATSIFDFMLN (POL1 1453-1468 M1459A (Saccharomyces cerevisiae, UniProt P13382); sequence looked up) | PRI1/PRI2 PRI1 1-409, PRI2 49-513 del382-384 | pull-down | peptide | 2 h, pH 7.0, 4 °C | – | binding | binds
B1 (PAT1 422-796 S456E/S457E) | LSM1/LSM2/LSM3/LSM4/LSM5/LSM6/LSM7 heptamer (Saccharomyces cerevisiae) | pull-down | – | – | – | binding | binds
fluorescein-SPT[pS]PSY[pS]PTS (POLR2A CTD peptide consensus heptads, 11-aa; N-fluorescein, pS4, pS8; fluorescein = fluorescein label (fluorescent) on the peptide N-terminus; pS = N[C@@H](COP(=O)(O)O)C(=O)O) | Rngtt 227-567 R330A/K331A/R386A (Mus musculus, UniProt O55236) | fluorescence polarisation | peptide | pH 7.0, 23 °C | – | binding | binds
V[dP]IA (D-Pro2) | PC-12 | protection from Aβ1–42 toxicity, MTT | – | concentration not given, 6 h, Aβ to peptide ratio 1:10, together with: Aβ1–42 2 µM | relative to: untreated cells | cell viability | 89.2%
KIF5A full-length homodimer (Mus musculus, UniProt P33175) | APC, SNAP-tag label (UniProt Q61315) | TIRF-M motility reconstitution | – | – | – | binding | binds
Insulin human | – | – | rat, olfactory bulb | intranasal, 20 µg per nostril, 120 min | – | brain concentration | 39.4 ± 6.5 pg/mg tissue
SDQEAK (SUMO1 residues 1-6 (Homo sapiens)) | HERC2 ZZ domain 2702-2755 (Homo sapiens, UniProt O95714) | crystal structure | – | molecule fused to partner | – | binding | binds
PYGM (Homo sapiens, UniProt P11217) | PHKB, pS12/pS27/pS701 (Homo sapiens, UniProt Q93100) | cross-linking | – | – | – | binding | binds
B2 (Nup98 732-880) | NUP82 1-452 L393A/I397A/L402A/L405A/F410A/C396S (Saccharomyces cerevisiae, UniProt P40368) | SEC | – | – | – | binding | binds
B3 (RNF7 5-113) | ARIH2 L381A/E382A/E455A (Homo sapiens, UniProt O95376) | cryo-EM | – | – | – | binding | binds
TAKCAARFPTWL (designed peptide) | APBA1 PDZ-1 648-746 C654S/C742S (UniProt Q02410) | ELISA | peptide | 1 hour | – | binding | binds
DIS3 (Saccharomyces cerevisiae, UniProt Q08162) | RRP45/SKI6/RRP43/RRP46/RRP42/MTR3/RRP4/RRP40/CSL4 1-305 del254-270 (Saccharomyces cerevisiae) | reconstitution, SDS-PAGE | – | – | – | binding | binds
B4 (sodA Q21C) | sodA Q21C, Alexa Fluor 594 at C21 (Escherichia coli, UniProt P00448) | native PAGE | – | 37 °C | – | binding | binds
BNI5 (Saccharomyces cerevisiae, UniProt P53890) | Cdc11/Cdc12/Cdc3/Cdc10-GFP hetero-octamer (Saccharomyces cerevisiae) | negative-stain EM | – | KCl 45 mM, together with: septins 50 nM | – | binding | binds
UGT1A9 (Homo sapiens, UniProt O60656) | COc1cc(O)c2c(=O)c(O)c(-c3ccc(O)c(O)c3)oc2c1 | steady-state kinetics | – | pH 7.4, 37 °C | – | Vmax/Km | 45000 µL/min/mg
B5 (RRP6 128-634) | Exo9 K132E/R206D/W278A (Saccharomyces cerevisiae, UniProt P46948) | reconstitution and purification | – | – | – | binding | binds
B6 (CRYAB) | NFE2L2 del205-400 (UniProt Q16236) | pull-down | – | – | – | binding | binds
B7 (BMP2 mature) | BMPR2 extracellular domain, Fc fusion 27-150, glycosylated (Homo sapiens, UniProt Q13873-1) | pull-down | – | – | – | binding | binds
ANK1 (human, UniProt P16157) | SPTB (Homo sapiens, UniProt P11277) | far-Western | – | – | – | binding | binds
B8 (ATG10 1-167 C26S/C137S) | ATG7 1-613 C39S/C195S/C375A, BMOE crosslink to Atg10 (Saccharomyces cerevisiae, UniProt P38862) | X-ray crystallography | – | catalytic cysteines crosslinked | – | binding | binds
THBS1 fragment (Homo sapiens) (sequence not shown) | pad-2 fragment R298K/R299K (Caenorhabditis elegans) | SEC | – | together with: GDP | – | binding | binds
GAATGAACTTGCTGACCCTCT (dsDNA) | T1, NR1I2/RXRA (Homo sapiens) | fluorescence anisotropy competition | double-stranded DNA, one strand shown | together with: DR3 FAM | – | Ki | 95.6 ± 5.1 nM
GRRYVDMTSIFDFMLN (POL1 residues 1453-1468, GST fusion (Saccharomyces cerevisiae)) | PRI1/PRI2 PRI1 1-409, PRI2 49-513 del382-384 | pull-down | peptide | 2 h, pH 7.0, 4 °C | – | binding | binds
B9 (SEC72) | SEC66, glycosylated; lysines PEGylated (Saccharomyces cerevisiae, UniProt P33754) | cryo-EM | – | – | – | binding | binds
TCAGCTGAATGAACTTGCTGACCCTCTGCTTTC (dsDNA) | T1, NR1I2/RXRA (Homo sapiens) | fluorescence anisotropy competition | double-stranded DNA, one strand shown | together with: DR3 FAM | – | Ki | 86.5 ± 4.5 nM
B10 (SERK3 ectodomain 26-225 F144A) | HAESA/IDA HAESA ectodomain; IDA 15-621, hydroxyproline in IDA (Arabidopsis thaliana) | ITC | – | pH 5.0, 25 °C | – | binding | binds
